{"data": "Experimental data collected from several papers", "cell line": "LNCaP", "note": "Numbers after ± are the reported error."}
{"SMILES": "Cc1ccc(C(C)C)cc1.Oc1ccccc1C=NNC1=Nc2ccccc2-c2[nH]c3ccc(Br)cc3c2C1.[Cl-].[Cl][Os+]", "assay": "cell growth or viability, MTT", "conditions": "96 h", "endpoint": "IC50", "value": "5.3 µM"}
{"SMILES": "CC1(CO)CCCC2(C)C1CCC1(C)c3cocc3CCC12 (stereo not drawn)", "assay": "qRT-PCR, measured: AR", "conditions": "10 µM, absence of androgen", "endpoint": "mRNA level", "value": "decreased"}
{"SMILES": "O=[N+]([O-])c1ccc(/N=N/c2ccc(O)c(O)c2)cc1", "assay": "cell growth or viability, resazurin", "conditions": "72 h", "endpoint": "IC50", "value": "3.24 µM"}
{"SMILES": "O=C(O)CC[C@H](NC(=O)N[C@@H](CCCCNC(=O)CCCCC[C@H](NC(=O)CCS[C@@H]1O[C@H](CO)[C@H](O)[C@H](O)[C@H]1O)C(=O)NCCCC[C@@H](NC(=O)[C@@H](Cc1ccccc1)NC(=O)[C@@H](Cc1ccc(O)c(I)c1)NC(=O)CCC(C(=O)O)N1CCN(CC(=O)O)CCN(CC(=O)O)CCN(CC(=O)O)CC1)C(=O)O)C(=O)O)C(=O)O (stereo partly drawn) [lutetium-177 labelled]", "conditions": "concentration not given, 60 min", "scale": "baseline: applied", "endpoint": "internalized activity", "value": "11.3%"}
{"SMILES": "O=C(O)CCC(NP(=O)(O)OCCC[C@@H](NC(=O)CC[C@H](NC(=O)CCCCCNC(=O)c1ccc([18F])cc1)C(=O)O)C(=O)O)C(=O)O (stereo partly drawn)", "conditions": "concentration not given, 4 h", "endpoint": "cell uptake", "value": "8.74 ± 2.67%"}
{"SMILES": "Cc1ccc(C(C)C)cc1.Cc1ncc(CO)c(C=NNC2=Nc3ccccc3-c3[nH]c4ccc(Br)cc4c3C2)c1O.[Cl-].[Cl][Ru+]", "assay": "cell growth or viability, MTT", "conditions": "96 h", "endpoint": "IC50", "value": "5.2 µM"}
{"SMILES": "COc1ccc(CCNc2ncnc3sc(C)cc23)cc1OC", "assay": "ChIP-qPCR, measured: FOXM1, CDK1, CDKN1A promoters", "conditions": "4 µM, 12 h", "endpoint": "FOXA1 promoter recruitment", "value": "decreased"}
{"SMILES": "Cc1cc(C(C)N(CCOC(=O)[C@H](CC(C)C)NC(=O)[C@@H](N)CO)c2ccccc2)c2nc(N3CCOCC3)cc(=O)n2c1 (stereo partly drawn)", "assay": "cellular uptake of compound, LC-MS/MS", "conditions": "0.5 µM, 1 h, 37 °C, with: Ser-Leu 10 µM", "endpoint": "inhibition", "value": "75%"}
{"SMILES": "CCC(CC)c1nc(-c2ccc(O)cc2O)cs1", "assay": "cell growth or viability, resazurin", "conditions": "72 h", "endpoint": "IC50", "value": "13.8 µM"}
{"SMILES": "COC1=C(OC)C(O)C(CC=C(C)CCC=C(C)CCC=C(C)C(=O)O)C(C)C1=O (stereo not drawn)", "assay": "cell growth or viability, MTS", "conditions": "72 h", "endpoint": "IC50", "value": "> 25 µM"}
{"SMILES": "C[N+]1(CC(=O)OC2CCCCCCCCCCC2)CCCCC1", "assay": "cell viability, CellTiter Blue", "conditions": "96 h", "endpoint": "ED20", "value": "2.6 µM"}
{"SMILES": "CC1=CC(C)=[N+]2C1=C(CCCC(=O)NCCCCCC(=O)NCCCC[C@H](NC(=O)N[C@@H](CCC(=O)O)C(=O)O)C(=O)O)c1c(C)cc(C)n1[B-]2(F)[18F] (stereo partly drawn)", "assay": "PSMA-mediated internalization", "conditions": "15 min, with: 2-PMPA blocking", "endpoint": "internalized fraction", "value": "2.24%"}
{"note": "Some of these lines once more:"}
{"SMILES": "O=C(O)CC[C@H](NC(=O)N[C@@H](CCCCNC(=O)CCCCC[C@H](NC(=O)CCS[C@@H]1O[C@H](CO)[C@H](O)[C@H](O)[C@H]1O)C(=O)NCCCC[C@@H](NC(=O)[C@@H](Cc1ccccc1)NC(=O)[C@@H](Cc1ccc(O)c(I)c1)NC(=O)CCC(C(=O)O)N1CCN(CC(=O)O)CCN(CC(=O)O)CCN(CC(=O)O)CC1)C(=O)O)C(=O)O)C(=O)O (stereo partly drawn) [lutetium-177 labelled]", "conditions": "concentration not given, 60 min", "scale": "baseline: applied", "endpoint": "internalized activity", "value": "11.3%"}
